Measured values collected from several papers.

SMILES | test | test system | conditions | how to read | measurement | result
C=CC(=O)Nc1cc(Nc2nccc(-c3cn(C)c4ccccc34)n2)c(OC)cc1N(C)CCN(C)C | measured: Pneumonitis grade ≥3 | EGFR-mutant MET-altered NSCLC | oral, dose not given, study | – | patients with treatment-related AEs | 0%
CCOc1c([C@H](C)n2nc(C)c3c(N)ncnc32)cc(Cl)c(F)c1[C@@H]1CNC(=O)C1 | measured: QTcF change above 60 ms | previously treated B-cell malignancy | oral, 45 mg once daily, baseline QTcF ≤450 ms | relative to: baseline | patients | 0%
C=CC(=O)NC1CCN(c2ncc3ncnc(Nc4ccc(Oc5ccc6c(c5)ncn6C)c(C)c4)c3n2)CC1 | – | male patients | oral, dose not given, on-treatment adverse events | – | patients with eye pain | 0%
COc1ccc([C@@H](O)c2cc(-c3ncnc4cc(N5CCOCC5)ccc34)c(F)cc2Cl)nn1 | measured: Proctitis | locally advanced rectal cancer patients | dose not given, all dose groups, added: capecitabine plus radiotherapy | – | patients with drug-related AE | 37%
CNC(=O)c1ccc(-c2cnc3ncc(Cc4ccc5ncccc5c4)n3n2)cc1F | measured: Constipation, all grades | hepatocellular carcinoma patients | oral, 600 mg twice daily, expansion cohort, any causality | – | patients with adverse event | 18%
C[C@@H](Nc1cc(F)cc(F)c1)c1cc(C(=O)N(C)C)cc2c(=O)cc(N3CCOCC3)oc12 | CTCAE v4, measured: alkaline phosphatase increased | patients with advanced solid tumours | oral, dose not given, phase I dose expansion | – | patients discontinuing for AE | 0%
FC(F)(F)c1ccc(CNc2ccc(Cc3c[nH]c4ncc(Cl)cc34)cn2)cn1 | measured: at least 1 adverse event | advanced solid tumour patients | oral, 1000 mg/day, all grades, all cohorts | – | patients with treatment-related adverse event | 92%
O=C(Nc1nc2cccc(-c3ccc(CN4CCS(=O)(=O)CC4)cc3)n2n1)C1CC1 | – | rheumatoid arthritis patients | oral, 100 mg twice daily, 4 weeks, regardless of relatedness | – | patients with epigastric discomfort | 0%
NC(=O)N1c2ccccc2C=Cc2ccccc21 | – | male patients | oral, dose not given, on-treatment adverse events | – | patients with muscle twitching | 7%
COc1cc(Nc2ncc3c(n2)-c2ccc(Cl)cc2C(c2c(F)cccc2OC)=NC3)ccc1C(=O)O | measured: back pain, grade 1 | cancer patients, phase 1/2 | oral, dose not given, added: pembrolizumab | – | patients with adverse event | 13%
Cc1cc(NC2CCN(C(=O)OC3CCN(C(=O)/C=C/CN(C)C)C3)CC2)n2ncc(C(C)C)c2n1 (stereo not shown) | Phase I dose escalation CTCAE v4.0, measured: small intestinal obstruction | patients with advanced solid tumours | dose not given, TIW dosing grade 3 or higher | – | patients with adverse event | 0%
C[C@@H](c1ccc2nccn2c1)n1nnc2ncc(-c3cnn(C)c3)nc21 | measured: treatment-related grade ≥3 Myalgia | EGFR-mutant MET-altered NSCLC | oral, dose not given, all | – | patients with adverse events | 0%
CNC(=O)c1cc(Oc2ccc(NC(=O)Nc3cc(C(C)(C)C)nn3-c3ccc4ncccc4c3)c(F)c2)ccn1 | – | patients | oral, dose not given, cycles 1 and 2, Medium AUC subgroup | – | patients with nervous system disorders | 43%

Some of these lines once more:
SMILES | test | test system | conditions | how to read | measurement | result
O=C(Nc1nc2cccc(-c3ccc(CN4CCS(=O)(=O)CC4)cc3)n2n1)C1CC1 | – | rheumatoid arthritis patients | oral, 100 mg twice daily, 4 weeks, regardless of relatedness | – | patients with epigastric discomfort | 0%
Cc1cc(NC2CCN(C(=O)OC3CCN(C(=O)/C=C/CN(C)C)C3)CC2)n2ncc(C(C)C)c2n1 (stereo not shown) | Phase I dose escalation CTCAE v4.0, measured: small intestinal obstruction | patients with advanced solid tumours | dose not given, TIW dosing grade 3 or higher | – | patients with adverse event | 0%
